Assay results pooled from the literature.
Each numbered part is a random draw from the data of one study; scales do not carry over between parts.

Sequences of proteins named here, by UniProt entry; tags and fusion partners are left off.
UniProt Q16539, whole entry: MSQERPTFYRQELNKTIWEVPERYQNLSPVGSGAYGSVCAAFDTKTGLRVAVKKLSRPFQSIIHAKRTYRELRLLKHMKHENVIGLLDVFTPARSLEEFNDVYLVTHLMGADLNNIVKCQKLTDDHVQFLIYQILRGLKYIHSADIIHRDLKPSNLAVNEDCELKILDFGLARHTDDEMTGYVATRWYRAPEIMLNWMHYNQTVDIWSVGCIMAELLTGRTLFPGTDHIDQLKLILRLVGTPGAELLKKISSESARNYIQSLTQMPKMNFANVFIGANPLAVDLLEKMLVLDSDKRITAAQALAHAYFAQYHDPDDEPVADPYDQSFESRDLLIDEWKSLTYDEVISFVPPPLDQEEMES

Sample 1
Structure (SMILES): N#Cc1c(-c2ccc(Cl)cc2Cl)n(-c2nc(-c3ccc(Cl)cc3)c3c(NC(=O)c4ccccc4)nnc-3[nH]2)[nH]c1=O
For OVCAR-5; SRB: CC50 read over 100 µM.
For CCRF-CEM; NCI60 SRB; 5 log dose range: CC50 read over 100 µM.
It gave over 100 µM for CC50 (NCI-H322M; SRB).

Other studies, line by line
`CC(C)C[C@H](NC(=O)[C@H](C)NC(=O)[C@H](CCCNC(=N)N)NC(=O)[C@H](CCCNC(=N)N)NC(=O)[C@H](CCCNC(=N)N)NC(=O)[C@H](C)NC(=O)[C@H](CC(C)C)NC(=O)[C@H](CCCNC(=N)N)NC(=O)[C@H](CO)NC(=O)[C@H](CCCCN)NC(=O)[C@H](CO)NC(=O)Cn1cc(COC(=O)[C@]2(C)C=C(C(=O)OC(C)(C)C)C(=O)CC2)nn1)C(=O)O` gave a fraction bound of 0.262 (MAPK14 (Homo sapiens, UniProt Q16539); binding, competitor, fluorescence polarization; 0.07812 µM; higher = less displacement).
Under “GR at highest concentration”, `C=C(C)C(=O)Nc1ccc(-c2c(-c3ccc(Oc4nccc(C)n4)c(F)c3)c3c(N)ncnc3n2C)cc1` is recorded as -0.699 (AN3 CA; cell growth, CellTiter-Glo; concentration not given, 120 h, unit not given; reference: untreated growth rate, lower = stronger inhibition).
`CCOc1ccc(C2C(C#N)=C(N)Oc3c2c(C)nn3-c2ccc(Cl)cc2)cc1` (stereo not drawn) has a viability of 67.7% (Vero E6; 1.6 µM).
